Published values collected from several papers.
Each numbered part is a random draw from the data of one study; scales do not carry over between parts. Positions count from the first letter of the parent shown.

Series 1
Target: Histone acetyltransferase KAT6A, winged helix 2, GST fusion (KAT6A, Homo sapiens, UniProt Q92794, residues 85-181)
Technique: protein binding microarray
Form: double-stranded DNA, one strand shown
Matrix: in vitro
Concentration: not given
Notes: 8-mer, flanks averaged, mean of 2 arrays, mostly near background
Relative to: not given
Direction: higher = stronger binding
Endpoint: E-score
Target sequence (chain): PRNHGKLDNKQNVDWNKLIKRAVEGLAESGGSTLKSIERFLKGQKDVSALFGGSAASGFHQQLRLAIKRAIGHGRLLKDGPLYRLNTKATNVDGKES
Strand = ATGGAAGA; value = -0.00391
Strand = AACCGGGC; value = 0.0836
Strand = CAACGGTG; value = -0.256
Strand = CACGGCGC; value = 0.199
Strand = CGAGAGTC; value = -0.0233
Strand = AGTCGTAG; value = -0.139
Strand = AATACCCT; value = -0.101
Strand = GGGTTCCA; value = -0.0254
Strand = CAGTGACC; value = 0.0944
Strand = GAAAAGGC; value = 0.101
Strand = GGCTATAC; value = -0.057
Strand = TACCGTCA; value = 0.0277
Strand = AAATGATA; value = 0.162
Strand = AGAGGCCG; value = -0.0277
Strand = TACCCCAA; value = -0.132
Strand = CAAAGATC; value = 0.104
Strand = CCGATGGA; value = -0.104
Strand = GACCGGTC; value = 0.118
Strand = AGTACAGG; value = 0.00863
Strand = AAGTACTC; value = -0.00776
Strand = GATAGAGC; value = 0.097
Strand = AGGATTAT; value = -0.0437
Strand = CAACTCTC; value = -0.15
Strand = CAGCTAAC; value = -0.11

Series 2
Target: RNA binding protein fox-1 homolog 2, RRM domain, GST-SBP tag (RBFOX2, Homo sapiens, UniProt O43251-10, residues 100-194)
Technique: RNA Bind-n-Seq
Form: RNA
Matrix: in vitro
Concentration: 365 nM
Notes: natural RNA segment, single round, ends assumed
Relative to: no-protein control
Direction: higher = stronger binding
Endpoint: RBNS enrichment (R)
Shared flanks, not repeated: GGGAGUUCUACAGUCCGACGAUC … UGGAAUUCUCGGGUGCCAA
Construct (chain): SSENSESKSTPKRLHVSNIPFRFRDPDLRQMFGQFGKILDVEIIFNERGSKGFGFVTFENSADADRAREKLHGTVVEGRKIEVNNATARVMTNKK
Strand = UAAUCUUGCUGCUUAUGUGCCAAUUUAGUGGAAAAAAACAACCCUUGCUGAAAAAUUCCCUCUUUCCAUUCUCUUUCAAUUCUGUGAUAUUGUCCAAGAAUGUAUCAAUA; value = 0.436
Strand = GUCAUGAGCAUUCAGAUUGCUGAAAAAAAUCUCAGAAUGGUAGUGUAUUUUUGUAUAUUGUAUUUAUAUAUAAAGAAAGAAAUGUCUACUUAUGCAUGCUAAAUUAUUAU; value = 17.5
Strand = UGACAGAUGUUUUUCUAAAAAGGACUAUUAUCAGUUUCCAAAUACAAUACUUCUCUCUUCUGGUUUUUCCUGAAUGAGCCUGAUUUUGUUGCUGGUUUUCAUCAUCUAUG; value = 0.222
Strand = UAUACACAUGAAUACUUAAAUGCCAACAUUUAAAAUAAUUUGAUAAAGUCUUUGUAGCCACUCAGCCCCUCUGGUGUUUGUGGUAUUGUUUUAAUGGGACAAGAGAUUAG; value = 0.681
Strand = AACCAAGUGGUGACUUUGUCCUCUGCCUGCUCAGUCACAAAGUAUAUCACUAGGCCAUAAAAAUGGAGAUGAUGUUUUGCUUGUGUCACAGUAGGUCUUGUGCAGUGUCA; value = 2.18
Strand = CAUAGAAAUAUCAAACAGUGAAAAACCAAACCUCCACAAGGCAACAGCCACAGCAGCCUCUCCUUGCCACUUGCAAGACCCUAGGAGUUGCAGACUUGAAAAAGCUCUGU; value = 0.542
Strand = UUAGCACUUAGGAAGCUUCUCCAACCUGUGCUCUAGGUCAGUAAAACUUCGUCCUCUGAAAUGCUUUUCUGUACUAAACUAACUUGAACGUGACCUAGAAACCAAGAGAU; value = 0.75
Strand = CUUCCACAGUUGGAAAGUGGAACUACUUGUUGUUGAUAUCCCACAGCUAUCAGGUGCUAUGUAACUCCCUAGUGCUCUUACAUAGUUUUAUUUGCAGGACUAGAAUAAAA; value = 1.08

Series 3
Target: Interferon regulatory factor 3, full length, phosphomimetic (IRF3, Homo sapiens, UniProt Q14653, residues 1-427, S386D/S396D/S398D/S402D/T404D/S405D)
Technique: protein-binding microarray
Form: double-stranded DNA, one strand shown
Matrix: in vitro
Concentration: 2540 nM top
Notes: 60-bp whole probe
With: salmon DNA 0.4 mg/ml
Relative to: random background probes
Direction: higher = stronger binding
Endpoint: fitted relative affinity
Shared flanks, not repeated: GCCTAGCAC … GTCTTGATTCGCTTGACGCTGCTG
Target sequence (chain): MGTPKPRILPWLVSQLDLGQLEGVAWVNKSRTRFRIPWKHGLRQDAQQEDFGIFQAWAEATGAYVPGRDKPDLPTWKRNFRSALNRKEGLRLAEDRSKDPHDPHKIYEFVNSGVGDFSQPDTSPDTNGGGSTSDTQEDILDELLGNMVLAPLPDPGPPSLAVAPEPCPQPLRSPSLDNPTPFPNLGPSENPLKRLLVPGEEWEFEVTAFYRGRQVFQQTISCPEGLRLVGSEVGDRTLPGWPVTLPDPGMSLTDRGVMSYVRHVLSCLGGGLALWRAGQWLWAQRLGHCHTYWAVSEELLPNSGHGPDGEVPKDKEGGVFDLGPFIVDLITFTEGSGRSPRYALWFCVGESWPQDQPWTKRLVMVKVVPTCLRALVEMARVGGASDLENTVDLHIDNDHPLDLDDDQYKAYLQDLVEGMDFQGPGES
Strand = TTAGATCTCAGTATCGCTTAGTGCTAG; value = 0.886 z-score
Strand = TCATTCCTGATCTCTGGTACTGTGCTA; value = 1.27 z-score
Strand = AAATGTTTTGTTTTTCATTAGTGCTAG; value = 3.24 z-score
Strand = GGGTTCAAGAAGTAGGAGAAGTGCTAG; value = -0.343 z-score
Strand = GACGGTTTCCTTTCCCTGAAGTGCTAG; value = 10.5 z-score
Strand = TCATTTCTCAACCTCCAACTGTGCTAG; value = 2.26 z-score
Strand = GACGGTATCATACTGCTGACGTGCTAG; value = 2.05 z-score
Strand = GACGAACTGAGTTTCGAGGCGTGCTAG; value = 0.761 z-score
Strand = TCAATTATGAGTCTTGAACTGTGCTAG; value = -0.11 z-score
Strand = TTAGGTTTAGACACTGGGTTAGTGCTA; value = -0.41 z-score
Strand = TCAGTATTATTTATTGTACTGTGCTAG; value = 0.826 z-score
Strand = TTATGTCTGGGTATTTTTTCGTGCTAG; value = -0.177 z-score
Strand = TACGATCTCAGTTTCGAGACGTGCTAG; value = 2.44 z-score
Strand = ACATATTTGTTTCCATTTTCGTGCTAG; value = 6.77 z-score
Strand = GACGGTCTCGGACTGGGGTCGTGCTAG; value = 0.16 z-score
Strand = TCATTTTTTTTTTTACTACTGTGCTAG; value = 1.5 z-score
Strand = TCATGTTGCAGACTCGAACTGTGCTAG; value = 1.76 z-score
Strand = CTTGCTTGGTGTCTCTGGCCGTGCTAG; value = -0.587 z-score
Strand = TTAGGTATCTTTATCCTTTAGTGCTAG; value = 1.71 z-score

Series 4
Target: CCND3, cyclin fold, Cln2 fusion (human)
Technique: yeast growth competition, sequencing
Matrix: yeast
Notes: weak parent motif
Relative to: not given
Direction: higher = stronger binding
Endpoint: normalised enrichment score
Starting sequence: E2F1 docking peptide (human); PPVKRRLDFETDH; partner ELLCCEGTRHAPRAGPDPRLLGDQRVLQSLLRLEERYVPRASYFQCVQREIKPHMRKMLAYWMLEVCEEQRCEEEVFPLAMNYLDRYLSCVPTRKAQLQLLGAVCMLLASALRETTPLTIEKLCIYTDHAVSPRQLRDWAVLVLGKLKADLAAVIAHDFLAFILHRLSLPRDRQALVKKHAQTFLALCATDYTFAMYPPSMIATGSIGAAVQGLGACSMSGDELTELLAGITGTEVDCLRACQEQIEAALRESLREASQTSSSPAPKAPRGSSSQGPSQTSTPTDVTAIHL
Substitution = PPFKRRLDFETDH [V3F]; value = -0.419
Substitution = PPVKRRLDFEQDH [T11Q]; value = 0.283
Substitution = PPVKRRLDFFTDH [E10F]; value = 0.501
Substitution = PPVKRRLDFVTDH [E10V]; value = 0.202
Substitution = PPVKRRLRFETDH [D8R]; value = -0.276
Substitution = PPVKRALDFETDH [R6A]; value = 0.273
Substitution = PPVKRNLDFETDH [R6N]; value = 0.087
Substitution = PPVKRRLDFEIDH [T11I]; value = 0.0693
Substitution = PRVKRRLDFETDH [P2R]; value = 0.147
Substitution = PPVKRRLDAETDH [F9A]; value = 0.0447
Substitution = PPVKRRLDFEHDH [T11H]; value = 0.385
Substitution = PPVKRILDFETDH [R6I]; value = -0.108
Substitution = PPVKRRDDFETDH [L7D]; value = -0.014
Substitution = PPVKIRLDFETDH [R5I]; value = 0.158
Substitution = PPVKRRLDFETCH [D12C]; value = 0.264
Substitution = PPVKRRWDFETDH [L7W]; value = 0.107
Substitution = PPVKRRRDFETDH [L7R]; value = 0.119
Substitution = PPVKRVLDFETDH [R6V]; value = 0.458
Substitution = PPVKRRLDFETRH [D12R]; value = 0.306
Substitution = PYVKRRLDFETDH [P2Y]; value = 0.112
Substitution = PPVKRRLDFEPDH [T11P]; value = 0.257
Substitution = PPVKRQLDFETDH [R6Q]; value = 0.0719
Substitution = PPVKRRKDFETDH [L7K]; value = -0.144
Substitution = PPVKRTLDFETDH [R6T]; value = 0.289
Substitution = PEVKRRLDFETDH [P2E]; value = 0.155

A few entries again (series 4):
Substitution = PPVKIRLDFETDH [R5I]; value = 0.158
Substitution = PPVKRRLDFETCH [D12C]; value = 0.264
Substitution = PPVKRRWDFETDH [L7W]; value = 0.107
Substitution = PPVKRRRDFETDH [L7R]; value = 0.119
Substitution = PPVKRVLDFETDH [R6V]; value = 0.458
Substitution = PPVKRRLDFETRH [D12R]; value = 0.306
